Published values pooled from the literature.
Parts stem from different laboratories: compare values within a part only. Positions count from the first letter of the parent shown.

Set 1 — target: CRIPT, C-terminal peptide; technique: DHFR complementation, deep sequencing; sample: yeast; reference: wild type; reading: higher = weaker binding; endpoint: binding free energy change
Notes: single substitutions, model-inferred values
Starting sequence: ERBIN, PDZ domain 1 (human); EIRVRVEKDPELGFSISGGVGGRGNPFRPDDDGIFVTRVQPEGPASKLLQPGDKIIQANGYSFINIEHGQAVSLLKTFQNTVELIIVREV; partner TKNYKQTSV
Q70A: -0.0435 kcal/mol
K8G: 0.429 kcal/mol
G13Y: 1.05 kcal/mol
A58H: 1.72 kcal/mol
K76S: 0.666 kcal/mol
R23Y: -0.595 kcal/mol
S62C: 0.129 kcal/mol
P44N: 0.194 kcal/mol

Set 2 — target: CREBRF, bZIP domain (human); technique: DHFR protein complementation; sample: yeast; reference: wild-type JUN-FOS pair; reading: higher = stronger binding; endpoint: binding fitness
Notes: single substitutions, most at no-binding floor
Starting sequence: JUN, bZIP domain (human); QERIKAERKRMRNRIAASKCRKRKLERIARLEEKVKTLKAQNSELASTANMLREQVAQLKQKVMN; partner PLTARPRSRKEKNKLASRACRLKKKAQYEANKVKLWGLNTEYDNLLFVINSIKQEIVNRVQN
L31I: -1.46 natural log
E32Y: -1.48 natural log
E33D: -1.5 natural log
T37A: -1.46 natural log
L38C: -1.41 natural log
K34W: -1.49 natural log
A46D: -1.57 natural log
A40D: -1.45 natural log

Set 3 — technique: RNA Bind-n-Seq; form: RNA; sample: in vitro; concentration: not given; reference: input RNA pool; reading: higher = stronger binding; endpoint: bound/input enrichment
Target: RING finger protein unkempt homolog, zinc fingers 1-6, GST-SBP tag (UNK, Homo sapiens, UniProt Q9C0B0, residues 30-357)
Chain of UniProt Q9C0B0 (30-357, looked up): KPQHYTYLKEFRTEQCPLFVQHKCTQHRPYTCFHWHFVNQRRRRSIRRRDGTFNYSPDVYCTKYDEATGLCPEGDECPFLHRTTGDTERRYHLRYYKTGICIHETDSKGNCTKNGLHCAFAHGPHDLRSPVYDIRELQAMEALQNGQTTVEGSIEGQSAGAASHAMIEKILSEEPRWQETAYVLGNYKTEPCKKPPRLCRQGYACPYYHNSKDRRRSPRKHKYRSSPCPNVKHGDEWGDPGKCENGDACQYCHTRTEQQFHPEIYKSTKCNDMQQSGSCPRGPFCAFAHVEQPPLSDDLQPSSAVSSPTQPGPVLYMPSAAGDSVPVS
Notes: RNA with constant flanks, human-mouse chimeric sites, ends assumed
Shared flanks, not repeated: GGGAGUUCUACAGUCCGACGAUC … CAACAGAGGAUUGAGCAUCA
UCUGGUCACACUCGUGUGUAUGGUGUUUGCUUUGUGGACACUUCACUGGGCAAGUUUUUCAUCGGCCAGUUUUCGGAUGAUCGCCAUUGUUCCAGAUUUAGGACGCUAGUGGCACACUAU: 0.192 ratio
CACAGAGGAGAUCUGCUGUUCCUCACAAAUUUCCGGGAGGACCCCAUCAGAGCUGGUGAAAUAGUUGUUUUUAAGGUUGAAGGAAGAGACAUUCCGAUAGUUCACAGAGUAAUCAAGGUU: 4.11 ratio
UCUUUAAAUGCACUACAACCUUUUCUGCAUAUUAUAGCCCUCCCAUAGAUCCACGUUCAAGCUCAAAGAGCAAAGGCUUUGCACGGAGCUCAAACAUCUGAUGAAGAAAGAUUUCUGAGA: 0.761 ratio
GCUCCUCCCCGCUCUGCCCCUGCCUGCCACUGGGCUGGGACCAGAAUCCAGCUUUCUUUUAAAACUCUCAGUGUAACUGUAUCCCGUGACAUUUCAUUUUUUUUAAAUAGUGUAUUUUUU: 4.61 ratio
AAAGUGAUGACUAUGUUUGUCCAACGACAGGUAUUUUCUGAGAACAAAGAUGAGAUUGCUUUAGUCCUCUAUGGCACAGAUGGCACUGAUAAUGCCCUUGCUGGCAAGGACCAGUAUCAG: 0.138 ratio
AAUUUCCUGUCAUACUUUUUAGACAUUCACAUCAGACUUACAGAGCAUUGGGCCUCUUUCUAGGUUUGUGUUAUUUCUAAGCCUUUUAUAUGAUCAAAUGAGAACACUGCUUAACUAAUG: 0.489 ratio
CUUAAUGAUAUUUUGAGUGAAUAAAUGAAGCUAAAAUGUCUGCUUUUGGUACAACACGCAUUAAUAAAAGGUUAAGUUUUGUUUUCCACUGAAGUACUAUUUAACAUCUCAGAAAAAAAC: 0.2 ratio
UUGCUACUGACUCCCUGGGUCAAGUUCCUGUGGGAGUCAUACAGGCAGUGUUUGGACCUUCUUCGAAACAAUUCUAGAGUAGAGCGCCUUUACCAUGAUAUCGCCCAGCAAGCUUUCAAA: 0.172 ratio

Other studies, line by line
Starting sequence: PafA, mature enzyme, eGFP fusion (Elizabethkingia meningoseptica, UniProt Q9KJX5); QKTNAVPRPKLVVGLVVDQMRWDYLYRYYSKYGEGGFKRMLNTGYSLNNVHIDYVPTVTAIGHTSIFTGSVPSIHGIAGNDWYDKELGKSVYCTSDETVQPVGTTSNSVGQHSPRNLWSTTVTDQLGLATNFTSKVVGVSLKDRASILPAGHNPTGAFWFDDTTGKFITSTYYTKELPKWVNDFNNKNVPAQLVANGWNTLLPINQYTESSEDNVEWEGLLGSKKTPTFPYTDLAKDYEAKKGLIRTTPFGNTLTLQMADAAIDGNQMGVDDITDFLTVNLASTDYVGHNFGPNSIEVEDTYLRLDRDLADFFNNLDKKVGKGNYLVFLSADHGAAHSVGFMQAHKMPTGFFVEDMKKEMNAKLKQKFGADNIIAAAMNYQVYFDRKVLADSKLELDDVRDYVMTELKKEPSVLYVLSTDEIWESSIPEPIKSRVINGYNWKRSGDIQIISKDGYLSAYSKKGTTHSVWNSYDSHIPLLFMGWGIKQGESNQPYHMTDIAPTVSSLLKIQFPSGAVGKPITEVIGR
S211V
phosphate dissociation constant (inorganic phosphate, free oxyanion; microfluidic competitive inhibition; in vitro, cell-free expressed; not given, derived from inhibition constants, unchanged parent 615000 nM; lower = stronger binding): 578 µM

Excerpt of the above (set 2):
A40D: -1.45 natural log
L38C: -1.41 natural log
